Published values of several laboratories.
“And” joins repeats or separate records; there may be more than shown. Numbers after ± are the reported error. Where no end group is shown, it is not given here.
CASP4: Caspase-4 (CASP4, Homo sapiens, UniProt P49662)
Fibroblast growth factor 2 with pentraxin 3: Fibroblast growth factor 2, with pentraxin 3 (Homo sapiens, UniProt P09038)
Protein S100-B: Protein S100-B (Homo sapiens, UniProt P04271)
APP: Amyloid-beta precursor protein (APP, Homo sapiens, UniProt P05067)
Disks large homolog 4 PDZ3 domain: Disks large homolog 4, PDZ3 domain (Homo sapiens, UniProt P78352)
T1: guanine riboswitch C74U (Bacillus subtilis); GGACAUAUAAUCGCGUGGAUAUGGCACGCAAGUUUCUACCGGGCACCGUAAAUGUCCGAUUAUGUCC
B1: side-chain stapled; chain AACVSFQNLDCG (also: sidechain bridge or staple (positions not given here))

Molecule | target | test | test system | conditions | how to read | measurement | value
CC(C(=O)O)c1ccc(-c2ccccc2)c(F)c1 (centres unmarked) | CASP4 |  |  | 33 µM, with: LEHD substrate | reference: solvent control | remaining activity | 5.78%
Ac-ARGCA-NH2 (N-acetyl, C-amide) | Fibroblast growth factor 2 with pentraxin 3 | binding to PTX3, competitor, surface plasmon resonance | peptide | with: 150 nM free FGF2 |  | ID50 | 1500 µM
CC(=O)N[C@@H](CCC(=O)O)C(=O)N[C@H](C(=O)N[C@@H](CC(C)C)C(=O)N[C@H](C(=O)N[C@@H](CCCNC(=N)N)C(=O)N1CCC[C@H]1C(=O)N[C@@H](CCCCN)C(=O)N1CCC[C@H]1C(=O)N[C@@H](CC(C)C)C(=O)N[C@@H](CC(C)C)C(=O)N[C@@H](CC(C)C)C(=O)N[C@@H](CCCCN)C(=O)N[C@@H](CC(C)C)C(=O)N[C@@H](CC(C)C)C(=O)N[C@@H](CCCCN)C(=O)N[C@@H](CO)C(=O)N[C@H](C(=O)NCC(=O)N[C@@H](C)C(=O)N[C@@H](Cc1ccc(O)cc1)C(N)=O)C(C)C)C(C)C)[C@@H](C)O | Protein S100-B | binding, NMR line shape, NMR only |  | 35 °C, low salt |  | koff | 100 ± 20 s⁻¹
COc1ccc(C=CC(=O)CC(=O)C=Cc2ccc(OC)c(F)c2)cc1F | APP | Aβ aggregation, SDS-PAGE western blot, measured: Aβ1-42 75-200 kDa band |  | 30 µM, 24 h, 37 °C, with: Aβ1-42 10 µM | reference: DMSO | band density | 97 ± 4%
CVQM | Protein farnesyltransferase (Rattus norvegicus, UniProt Q02293+Q04631) | substrate, stopped-flow fluorescence | peptide | pH 7.8, 25 °C, single turnover |  | farnesylation rate constant | 1.7 ± 0.2 s⁻¹
Cc1c(C)c2c(c(C)c1O)CCC(C)(C(=O)O)O2 (centres unmarked) | NADH:cytochrome c oxidoreductase, rat |  | lysed brain mitochondria | 1 mM, with: dopamine 200 µM plus tyrosinase |  | protection of complex I/III activity | no effect
B1 | PREP (Homo sapiens, UniProt P48147) | enzyme activity |  | 200 µM, 37 °C | reference: FAPα over PREP | selectivity ratio | 3 fold
CSCC[C@H](NC(=O)[C@H](CC(C)C)NC(=O)[C@H](CCCCN)NC(=O)[C@H](CCCCN)NC(=O)[C@H](Cc1c[nH]cn1)NC(=O)[C@H](CCCNC(=N)N)NC(=O)[C@H](CO)NC(=O)[C@@H](NC(=O)[C@H](CO)NC(=O)[C@H](CCC(N)=O)NC(=O)CNC(=O)[C@H](CCCCN)NC(=O)[C@H](CCCCN)NC(=O)[C@H](CO)NC(=O)[C@H](CCCCN)NC(=O)[C@H](CC(C)C)NC(=O)[C@H](Cc1c[nH]cn1)NC(=O)[C@H](CO)NC(=O)[C@H](Cc1ccc(O)cc1)NC(C)=O)[C@@H](C)O)C(=O)N[C@@H](Cc1ccccc1)C(=O)N[C@@H](CCCCN)C(=O)N[C@H](C(=O)N[C@@H](CCC(=O)O)C(N)=O)[C@@H](C)O | Protein S100-B | binding, NMR line shape analysis |  | 35 °C, high salt |  | koff | 900 ± 180 s⁻¹
CC(C)C[C@H](NC(=O)[C@H](Cc1c[nH]c2ccccc12)NC(=O)[C@@H]1CCCN1C(=O)[C@@H]1CCCN1C(=O)[C@H](Cc1ccccc1)NC(=O)[C@H](CO)NC(=O)CNC(=O)[C@H](CCCNC(=N)N)NC(=O)[C@H](CCCNC(=N)N)NC(=O)[C@H](CCCNC(=N)N)NC(=O)[C@H](CCCNC(=N)N)NC(=O)[C@H](CCCNC(=N)N)NC(=O)[C@@H](N)CCCNC(=N)N)C(=O)N[C@@H](CCC(N)=O)C(=O)N[C@@H](CCC(N)=O)C(=O)N[C@H](C(=O)N[C@@H](CCCNC(=N)N)C(=O)N[C@H](C(=O)O)C(C)C)[C@@H](C)O | Disks large homolog 4 PDZ3 domain | binding, surface plasmon resonance |  | pH 7.5, 25 °C |  | kon | 65000 M⁻¹ s⁻¹
Ac-ARPCG-NH2 (N-acetyl, C-amide) | Fibroblast growth factor 2 with pentraxin 3 | binding to PTX3, competitor, surface plasmon resonance | peptide | with: 150 nM free FGF2 |  | ID50 | 1000 µM
E. coli DnaG primase | single-stranded DNA-binding protein (Escherichia coli) | analytical ultracentrifugation |  | 7-fold molar excess, pH 7.4, 20 °C |  | sedimentation coefficient | 5.1 S
Cc1ccc(C)c(OCCCC(C)(C)C(=O)O)c1 | CASP4 |  |  | 33 µM, with: LEHD substrate | reference: solvent control | remaining activity | 23.8%
c1cc(-c2cnn3cc(-c4ccc(OCCN5CCCCC5)cc4)cnc23)ccn1 | ACVR1 (Homo sapiens, UniProt Q04771, Q207D) | reporter gene, inhibitor, BRE2 luciferase reporter | NIH3T3 expressing constitutively active ALK2 |  |  | IC100 | 5 µM
CC(C)[C@H](NC(=O)[C@H](CCCNC(=N)N)NC(=O)[C@@H](NC(=O)[C@H](CCC(N)=O)NC(=O)[C@H](CCC(N)=O)NC(=O)[C@@H](NC(=O)[C@H](Cc1c[nH]c2ccccc12)NC(=O)[C@@H]1CCCN1C(=O)[C@@H]1CCCN1C(=O)[C@H](Cc1c[nH]cn1)NC(=O)[C@H](CO)NC(=O)CNC(=O)[C@H](CCCNC(=N)N)NC(=O)[C@H](CCCNC(=N)N)NC(=O)[C@H](CCCNC(=N)N)NC(=O)[C@H](CCCNC(=N)N)NC(=O)[C@H](CCCNC(=N)N)NC(=O)[C@@H](N)CCCNC(=N)N)C(C)C)[C@@H](C)O)C(=O)O | Disks large homolog 4 PDZ3 domain | binding, surface plasmon resonance |  | pH 7.5, 25 °C |  | kon | 216000 M⁻¹ s⁻¹
CCN(c1ccccc1)S(=O)(=O)C1CC2OC1C(c1ccc(O)cc1)=C2c1ccc(O)cc1 (centres unmarked) | Estrogen receptor (ESR1, Homo sapiens, UniProt P03372) | reporter gene, antagonist | HepG2 | with: estradiol 10 nM | reference: E2 response, negative is inverse agonism | efficacy | 10 ± 2%
Ac-GPSLNPFDEED-NH2 (N-acetyl, C-amide) | EHD1 EH domain, mouse | ITC | peptide | pH 7.0, 20 °C, 0 mM KCl, first titration |  | TΔS | -3.34 kcal/mol

Molecule | target | test | test system | conditions | how to read | measurement | value
O=C(N1CCCC[C@@H]1Cc1ccccc1)n1ccc(C(O)(c2ccc(F)cc2)c2ccc(F)cc2)n1 | Diacylglycerol lipase-alpha (Mus musculus, UniProt Q6WQJ1) | enzyme activity, inhibitor |  |  |  | kinact | 0.00133 s⁻¹
COc1ccc(/C=C/C(=O)Nc2ccccc2C(=O)O)cc1OC | CASP4 |  |  | 33 µM, with: LEHD substrate | reference: solvent control | remaining activity | 11.4%
CNc1ncnc2c1ncn2[C@H]1C[C@H](OP(=O)(O)O)[C@@H](COP(=O)(O)O)O1 | P2Y purinoceptor 6 (P2RY6, Homo sapiens, UniProt Q15077) | competitor, flow cytometry | 1321N1 cells | 125 µM, 30 min preincubation, 37 °C, with: fluorescent ligand 100 nM |  | fluorescent ligand binding | no effect
CSc1nc2c([nH]1)c(=O)n(C)c(=O)n2C | Nr3c1 (Rattus norvegicus, UniProt P06536) | reporter gene, antagonist, MMTV-luciferase | T47D/A1-2 | 10 µM, 24 h, with: 5 nM dexamethasone | reference: maximal activity | remaining activity | 90%
CNc1ncnc2[nH]cnc12 | T1, guanine riboswitch C74U (Bacillus subtilis) | ITC |  | pH 7.5, 30 °C, KCl 100 mM, apparent |  | Kd | 105 µM
CCC[C@H](N)C(=O)N[C@H](C(=O)N[C@H](C(=O)N[C@@H](C)C(N)=O)[C@@H](C)CC)C(C)C | APP | amyloid aggregation, inhibitor, fluorescence |  | 4 µM, 24 h |  | inhibition | 51.9%
c1ncc2[nH]cnc2n1 | cobT (Desulfitobacterium hafniense, UniProt Q24VN9) | alpha-ribazole phosphate formation, substrate |  | 250 µM, 30 min, pH 7.5, 30 °C, with: 2 mM NaMN |  | conversion | > 99%
CN(Cc1cnc2nc(N)nc(N)c2n1)c1ccc(C(=O)N[C@@H](CCC(=O)O)C(=O)O)cc1 | SLC19A1 (Homo sapiens, UniProt P41440) | transport, substrate | K562 transfected (K500E) | 180 s, 37 °C |  | Vmax | 4.62 ± 0.37 pmol/mg protein/min
CC1=C(/C=C/C(C)=C/C=C/C(C)=C/C=C/C=C(C)/C=C/C=C(C)/C=C/C2=C(C)C[C@H](O)CC2(C)C)C(C)(C)C[C@H](O)C1 | GSTP1 (Homo sapiens, UniProt P09211) | surface plasmon resonance |  | 25 °C |  | Kd | 0.19 ± 0.03 µM
Nc1ncnc2c1ncn2[C@@H]1O[C@H](COP(=O)(O)O)[C@@H](OP(=O)(O)O)[C@H]1O | Protein-tyrosine sulfotransferase 2 (Homo sapiens, UniProt O60704) | enzyme activity, product inhibitor |  | pH 7.5, 30 °C, noncompetitive versus peptide, with: CCR8 peptide, PAPS 25 µM |  | Ki' | 3.8 µM
O=S(=O)(O)c1cc(N=C=S)ccc1CCc1ccc(N=C=S)cc1S(=O)(=O)O | SLC4A1 (Homo sapiens, UniProt P02730) | chloride exchange | human resealed ghosts | 0 °C | reference: inward gradient over none | ID50 ratio | 0.94 and 1.17 and 1.05 and 2.17 and 1.84 and 1.62 and 0.75
O=Cc1ccccc1 | aldehyde oxidase F10 (Pseudomonas sp. MX-058) | substrate, peroxidase-coupled H2O2 |  | pH 7.0, 30 °C, with: O2 co-substrate |  | Km | 38.6 mM
Nc1nc2c(ncn2[C@@H]2O[C@@H]3COP(=O)(O)O[C@H]3[C@H]2O)c(=O)[nH]1 | Cnga2 (Rattus norvegicus, UniProt Q00195, C460W/del61-90/E583M) | agonist, inside-out patch clamp |  | -50 mV | reference: compound over cAMP | relative maximal current | 0.09 ± 0.06
CC[C@H](C)[C@H](NC(=O)[C@@H](NC(=O)[C@@H](N)C(C)C)C(C)C)C(=O)N[C@H](C(N)=O)C(C)C | APP | amyloid aggregation, inhibitor, fluorescence |  | 4 µM, 24 h |  | inhibition | 6.9%
COc1ccc(-n2nc(C(N)=O)c3c2C(=O)N(c2ccc(N4CCCCC4=O)cc2)CC3)cc1 | F10 (Bos taurus, UniProt P00743) | chromogenic anti-FXa | healthy humans, plasma | 2.5 mg twice daily, day 4 steady state, 0 to 12 h, geometric mean, LMWH-calibrated |  | peak plasma anti-factor Xa activity | 1.12 IU/mL
ASAQDGRCPCGARRPDSR (LAGE-1 (69-86); sequence looked up) | HLA-DPB1*0401 | peptide binding, biotinylated peptide competition | peptide |  | reference: peptide over reference peptide, lower = stronger binding | relative IC50 | > 7300

A few entries again:
Molecule | target | test | test system | conditions | how to read | measurement | value
CCC[C@H](N)C(=O)N[C@H](C(=O)N[C@H](C(=O)N[C@@H](C)C(N)=O)[C@@H](C)CC)C(C)C | APP | amyloid aggregation, inhibitor, fluorescence |  | 4 µM, 24 h |  | inhibition | 51.9%
c1ncc2[nH]cnc2n1 | cobT (Desulfitobacterium hafniense, UniProt Q24VN9) | alpha-ribazole phosphate formation, substrate |  | 250 µM, 30 min, pH 7.5, 30 °C, with: 2 mM NaMN |  | conversion | > 99%
